# Published values pooled from the literature.
# Compare with care: the assays were run in different laboratories. ± marks the error that the study gave.
Molecule,cell line,assay,conditions,IC50
C#CC[C@H](NC(=O)CNC(=O)CNC(=O)[C@H](Cc1ccc(O)cc1)NC(=O)[C@H](CCCNC(=N)N)NC(=O)[C@H](CCC(N)=O)NC(=O)[C@@H]1CCCN1C(=O)[C@H](CCC(N)=O)NC(=O)[C@H](Cc1ccc(O)cc1)NC(=O)[C@@H](NC(=O)[C@H](CCCNC(=N)N)NC(=O)[C@@H]1CCCN1C(=O)[C@H](CCCNC(=N)N)NC(=O)[C@H](CC(C)C)NC(=O)[C@H](CC(N)=O)NC(=O)[C@H](Cc1ccc(O)cc1)NC(=O)CNC(=O)CN)[C@@H](C)O)C(N)=O,A2780cisR,"cell growth or viability, MTT","72 h, drug-resistant strain",> 200 µM
echistatin,U-87 MG,cell adhesion to fibronectin,2 h,0.0092 ± 0.0015 µM
CC(C)[C@H]1c2ccc(F)cc2CC[C@@]1(CCN(C)CCCc1nc2ccccc2[nH]1)OC(=O)C1CC1,HepG2,"cell viability, ATP content",24 h,18.8 ± 1.5 µM
O=C1[O][Pt]2([NH][C@@H]3CCCC[C@H]3[NH]2)[O]C1=O,LoVo OXP cells (resistant to compound),"cell viability, MTT",72 h,14.3 ± 2.1 µM
COc1ccc(C[C@H]2NC(=O)/C=C/C[C@@H]([C@H](C)[C@@H](OC(=O)CN)[C@@H](Cl)c3ccccc3)OC(=O)[C@H](CC(C)C)OC(=O)C(C)(C)CNC2=O)cc1Cl,M21,"cytotoxicity, resazurin","2 h plus 70 h incubation, with β-glucuronidase 2 U/well",0.00422 ± 0.00044 µM
COc1ccc(C[C@H]2NC(=O)/C=C/C[C@@H]([C@H](C)[C@@H](OC(=O)CN)[C@@H](Cl)c3ccccc3)OC(=O)[C@H](CC(C)C)OC(=O)C(C)(C)CNC2=O)cc1Cl,M21-L human melanoma (integrin αv-negative),"cell viability, MTT",2 h treatment plus 70 h,0.00014 ± 8e-05 µM
N.N.[Cl][Pt][Cl],CCD-18Co colon fibroblasts,"cell viability, MTS",48 h,72 ± 1.5 µM
Nc1cccc2c(N)cccc12,HepG2,"mitochondrial membrane potential, high content imaging",5 h,inactive
CC(C)C[C@H](NC(=O)[C@H](CCCCN)NC(=O)[C@H](CS)NC(=O)[C@H](CC(C)C)NC(=O)[C@@H](NC(=O)[C@@H](NC(=O)[C@H](CO)NC(=O)[C@H](Cc1ccccc1)NC(=O)[C@@H]1CCCN1C(=O)[C@H](Cc1c[nH]c2ccccc12)NC(=O)[C@H](Cc1c[nH]cn1)NC(=O)[C@H](CC(=O)O)NC(=O)CNC(=O)[C@H](CCCNC(=N)N)NC(=O)[C@H](C)NC(=O)[C@@H](N)Cc1ccc(O)cc1)[C@@H](C)O)C(C)C)C(=O)N[C@H](C(=O)N[C@@H](CCCNC(=N)N)C(=O)O)C(C)C,K562,cell adhesion,"15 min preincubation, together with: vitronectin beads",105 ± 35 µM
CC[C@H](C)[C@H](N)C(=O)N[C@@H](CC(C)C)C(=O)N[C@@H](CCCNC(=N)N)C(=O)N[C@@H](Cc1c[nH]c2ccccc12)C(=O)N[C@@H](CO)C(=O)N[C@@H](CCCNC(=N)N)C(=O)N[C@@H](CCCCN)C(=O)N[C@@H](CC(C)C)C(=O)N1CCC[C@H]1C(=O)N[C@@H](CS)C(=O)N[C@H](C(=O)N[C@@H](CO)C(=O)O)C(C)C,SUP-T1,"cell migration, inhibitor",,0.48 µM
COc1ccc(C[C@H]2NC(=O)/C=C/C[C@@H]([C@H](C)[C@@H](OC(=O)CNC(=O)CCc3cn(CCOCCOCCOCCOCC(=O)NCc4ccc(CN5C(=O)[C@H]6CC(=O)N[C@H](C(=O)O)CC(=O)NCC(=O)N[C@@H](CCCNC(=N)N)C(=O)NC[C@H]5C(=O)N6)cc4)nn3)[C@@H](Cl)c3ccccc3)OC(=O)[C@H](CC(C)C)OC(=O)C(C)(C)CNC2=O)cc1Cl,M21 human melanoma (integrin αvβ3-positive),"cell viability, MTT",2 h treatment plus 70 h,0.288 ± 0.0359 µM
CC(C)c1ccc2c(c1)CC[C@H]1[C@](C)(CN)CCC[C@]21C,MEL-JUSO,"cell growth or viability, MTS",48 h,4.61 µM
N.N.[Cl][Pt][Cl],BEAS-2B,,,5.7 ± 0.3 µM
COC(=O)/C=C/c1cc(O)ccc1O,H3255 (EGFR L858R),"cell viability, Alamar Blue",120 h,> 10 µM
O=C(NC12CC3CC(CC(C3)C1)C2)c1ccc(NC(=O)c2cc3c(F)cc(F)cc3[nH]2)cc1,KNS-42,"cell growth or viability, resazurin",72 h,> 10 µM
CCCCCCCCCC(=O)N[C@@H](Cc1ccccc1)C(=O)N[C@H](C(=O)NCC(=O)N[C@H](C(=O)N[C@@H](CC(C)C)C(=O)N[C@H](C(=O)N1CCC[C@H]1C(=O)N[C@@H](CC(C)C)C(=O)N[C@@H](C)C(=O)N[C@@H](CC(C)C)C(=O)NCC(=O)N[C@@H](C)C(=O)N[C@@H](CC(C)C)C(=O)N[C@H](C(=O)N[C@@H](CCCCN)C(=O)N[C@@H](CC(C)C)C(=O)N[C@@H](Cc1ccccc1)C(=O)N[C@@H](CCCCN)C(N)=O)[C@@H](C)O)[C@@H](C)CC)[C@@H](C)O)[C@@H](C)CC,HCT-116,"cell growth or viability, CCK-8",24 h,6.82 µM
C#CC[C@H](NC(=O)[C@H](CO)NC(=O)CNC(=O)[C@H](CCCNC(=N)N)NC(=O)[C@@H](NC(=O)[C@H](CC(C)C)NC(=O)[C@@H]1CCCN1C(=O)[C@H](C)NC(=O)CNC(=O)[C@@H](NC(=O)[C@H](CO)NC(=O)[C@H](CCCNC(=N)N)NC(=O)CNC(=O)[C@H](CO)NC(=O)[C@H](CCCNC(=N)N)NC(=O)[C@H](CC(C)C)NC(=O)[C@H](CCCNC(=N)N)NC(=O)[C@H](CCCN)NC(=O)CNC(=O)[C@@H]1CCCN1C(=O)[C@@H]1CCCN1C(=O)[C@H](C)N)[C@@H](C)O)[C@@H](C)O)C(N)=O,A2780cisR,"cell growth or viability, MTT","72 h, drug-resistant strain",> 200 µM
O=C(Cn1cnc2ccccc2c1=O)Nc1cc(Cl)ccc1O,MDA-MB-231,"cell growth or viability, crystal violet",48 h,> 100 µM
COC(=O)[C@H]1[C@@H](O)[C@@]2(O)c3c(OC)cc(O[C@@H]4O[C@@H]([C@H](O)CO)CO[C@H]4OC)cc3O[C@@]2(c2ccc(OC)cc2)[C@@H]1c1ccccc1,NIH/3T3 eIF4A1 knockdown,cell viability,5 days,0.0038 µM
COc1ccc2oc(C(=O)c3cc(OC)c(OC)c(OC)c3)c(N)c2c1,L1210,cell growth or viability,,8.38 µM
O=C(NNc1ccccc1)c1cc2c(F)cc(F)cc2[nH]1,KNS-42,"cell growth or viability, resazurin",72 h,4.45 µM
C[C@H]1[C@H](OC(=O)CCC(=O)Oc2ccc(CCO)cc2)O[C@@H]2O[C@@]3(C)CC[C@H]4[C@H](C)CC[C@@H]1[C@@]24OO3,SK-MEL3,"cell viability, MTT","24 h, together with: deferoxamine 20 µM, 1 h before",24.5 ± 1.3 µM
COc1cc2cc(c1Cl)N(C)C(=O)C[C@H](OC(=O)[C@H](C)N(C)C(=O)CCS)[C@]1(C)O[C@H]1[C@H](C)[C@@H]1C[C@@](O)(NC(=O)O1)[C@H](OC)/C=C/C=C(\C)C2,MDA-MB-468,"cell growth or viability, ATP luminescence",,0.0048 µM
CC(=O)OC[C@H]1O[C@@H]([S-])[C@H](OC(C)=O)[C@@H](OC(C)=O)[C@@H]1OC(C)=O.CCP(CC)CC.[Au+],HEK293T ERR reporter line,"cell viability, qHTS",,9.44 µM
CCNC(=O)[C@H]1O[C@@H](n2cnc3c(N)ncnc32)[C@H](O)[C@@H]1O,"HL-1, non-transfected",protection from cell death,"4 h, together with: H2O2 750 µM",3.7 ± 1 µM
Oc1ccc2c3c1O[C@H]1c4[nH]c5c(c4C[C@@]4(O)[C@@H](C2)N(CC2CC2)CC[C@]314)C[C@@]1(O)[C@H]2Cc3ccc(O)c4c3[C@@]1(CCN2CC1CC1)[C@H]5O4,HEK293 expressing MOR,"cAMP overshoot, inhibitor, HTRF cAMP",together with: morphine then naloxone,4.61 µM
CC(=O)OC[C@H]1O[C@@H]([S-])[C@H](OC(C)=O)[C@@H](OC(C)=O)[C@@H]1OC(C)=O.CCP(CC)CC.[Au+],NICD-transfected HEK-293T,"Notch-dependent transcription, inhibitor, luciferase reporter",24 h,2.2 µM
Nc1nc(Cl)c(-c2ccccc2)c(Cl)n1,mouse peritoneal cells,"nitric oxide production, Griess","24 h, together with: LPS plus IFN-gamma",24.2 µM
CC(=O)NCCCCCC(=O)N[C@@H](CCCNC(=N)N)C(=O)N[C@@H](Cc1c[nH]c2ccccc12)C(=O)N[C@@H](CCC(N)=O)C(=O)N[C@@H](Cc1c[nH]c2ccccc12)C(=O)N[C@@H](CCCNC(=N)N)C(=O)N[C@@H](Cc1c[nH]c2ccccc12)C(=O)N[C@@H](CCC(N)=O)C(=O)N[C@@H](Cc1c[nH]c2ccccc12)C(=O)N[C@@H](CCCNC(=N)N)C(N)=O,Caco-2,"cell growth or viability, MTT",,31 µM
CCCCc1c(Cl)nc(N)nc1Cl,mouse peritoneal cells,"nitric oxide production, item: nitrite","24 h, together with: LPS plus IFN-gamma",36 µM
COc1cc2nccc(Oc3ccc(NC(=O)NC4CC4)c(Cl)c3)c2cc1C(N)=O,MHCC97H,"cell growth or viability, MTT",48 h,0.7 µM
O=C1C[C@@H](c2ccc(O)cc2)Oc2cc(O)ccc21,SK-BR-3 breast cancer,cell growth,,155 ± 7.4 µM
N#Cc1ccc(N2CCCC(CN3CCC(C4(C5CCCC5)NCCc5ccccc54)CC3)C2)cc1 (centres unmarked),MV4-11,"cell growth or viability, CCK-8",96 h,3.96 µM
C/C=C1\NC(=O)[C@@H](NC(=O)[C@H](CCC(N)=O)NC(=O)CCCCC)[C@@H](C)OC(=O)[C@H](C(C)C)NC(=O)[C@H](Cc2ccc(O)cc2)N(C)C(=O)[C@H](Cc2ccccc2)N2C(=O)[C@H](CC[C@H]2O)NC1=O,BEAS-2B,"cell growth or viability, MTT",24 h,0.07 µM
O=C1C[C@@H](O)CO1,RAW264.7,"NO release, inhibitor",LPS-stimulated,70.7 µM
O=C(c1cc2c(F)cc(F)cc2[nH]1)N1CCNCC1,KNS-42,"cell growth or viability, resazurin",72 h,1.34 µM
COc1cccc2c1C(=O)c1c(O)c3c(c(O)c1C2=O)C[C@@](O)(C(=O)CO)C[C@@H]3O[C@H]1C[C@H](N)[C@H](O)[C@H](C)O1,U-87 MG,"cell growth or viability, SRB",72 h,0.4 µM
CCc1c2c(nc3ccc(OCc4ccc(NC(=O)[C@H](C)NC(=O)[C@@H](NC(=O)CCCCCNC(=O)COCCOCCOCCNC(=O)CCCCC(=O)N5Cc6ccccc6-c6c(nnn6CCOCCOCCOCCOCCC(=O)N[C@@H](Cc6c[nH]cn6)C(=O)N[C@@H](C)C(=O)N[C@H](C(=O)N[C@@H](Cc6ccc(O)cc6)C(=O)N6CCC[C@H]6C(=O)N[C@@H](CCCNC(=N)N)C(=O)N[C@@H](Cc6c[nH]cn6)C(=O)O)[C@@H](C)CC)-c6ccccc65)C(C)C)cc4)cc13)-c1cc3c(c(=O)n1C2)COC(=O)[C@]3(O)CC,U-87 MG,"cytotoxicity, XTT",72 h,0.0701 µM
COc1ccc(C[C@H]2NC(=O)/C=C/C[C@@H]([C@H](C)[C@@H](OC(=O)CNC(=O)OCc3ccc(NC(=O)[C@H](C)NC(=O)[C@@H](NC(=O)CCc4cn(CCOCCOCCOCCOCC(=O)NCc5ccc(CN6C(=O)[C@H]7CC(=O)N[C@@H](CCCNC(=N)N)C(=O)NCC(=O)N[C@@H](CC(=O)O)C(=O)NC[C@H]6C(=O)N7)cc5)nn4)C(C)C)cc3)[C@@H](Cl)c3ccccc3)OC(=O)[C@H](CC(C)C)OC(=O)C(C)(C)CNC2=O)cc1Cl,M21-L human melanoma (integrin αv-negative),"cell viability, MTT",2 h treatment plus 70 h,0.0223 ± 0.002 µM
COc1ccc(NC(=O)Cn2cnc3ccccc3c2=O)c([N+](=O)[O-])c1,MDA-MB-231,"cell growth or viability, crystal violet",48 h,> 100 µM
N.N.[Cl][Pt][Cl],NCM460,"cell growth or viability, CCK-8",,4.8 µM

# Some of these lines once more:
Molecule,cell line,assay,conditions,IC50
COc1ccc(C[C@H]2NC(=O)/C=C/C[C@@H]([C@H](C)[C@@H](OC(=O)CN)[C@@H](Cl)c3ccccc3)OC(=O)[C@H](CC(C)C)OC(=O)C(C)(C)CNC2=O)cc1Cl,M21-L human melanoma (integrin αv-negative),"cell viability, MTT",2 h treatment plus 70 h,0.00014 ± 8e-05 µM
N#Cc1ccc(N2CCCC(CN3CCC(C4(C5CCCC5)NCCc5ccccc54)CC3)C2)cc1 (centres unmarked),MV4-11,"cell growth or viability, CCK-8",96 h,3.96 µM
